Assay results pooled from the literature.
A part holds a random share of what one study measured.

Series 1
Target: RING finger protein unkempt homolog, zinc fingers 1-6, GST-SBP tag (UNK, Homo sapiens, UniProt Q9C0B0, residues 30-357)
UniProt Q9C0B0, sequence (30-357, looked up): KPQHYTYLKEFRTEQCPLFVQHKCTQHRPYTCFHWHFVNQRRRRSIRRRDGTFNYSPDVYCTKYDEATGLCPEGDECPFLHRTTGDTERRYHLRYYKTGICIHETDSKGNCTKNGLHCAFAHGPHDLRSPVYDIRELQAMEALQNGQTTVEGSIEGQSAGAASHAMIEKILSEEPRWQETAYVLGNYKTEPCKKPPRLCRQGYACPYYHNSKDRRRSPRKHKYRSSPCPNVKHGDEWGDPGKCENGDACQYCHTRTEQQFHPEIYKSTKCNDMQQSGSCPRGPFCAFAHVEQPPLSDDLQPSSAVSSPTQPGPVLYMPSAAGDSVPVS
Method: RNA Bind-n-Seq
Molecule type: RNA
Sample: in vitro
Tested at: not given
Notes: RNA with constant flanks, human and mouse sites, ends assumed
Baseline: input RNA pool
Reading: higher = stronger binding
Constant ends, left off below: GGGAGUUCUACAGUCCGACGAUC … CAACAGAGGAUUGAGCAUCA
Oligonucleotide	bound/input enrichment [ratio]
AACCUCCUCAUCCAGAGCAUUCCGGGCUUCUGGGGGCAAGCUUUUCAGAACCAUCCCCAGCUGUCAGCUUUUCUGAAUACCAAAGAUAAGGAGGUAUUGAGCUAUUUGAACAGACUGGAG	0.128
GGGACUCAGGGCUGGACCGACGUCCUAGUGGACCUGAUGUGAAAUUCCUGUCAAACAAACACCACUUUUCAAUGGUUUGCUAGGAGUAUUUCUGUAUUGAAAGUUUCUAAUUAUGCUUUU	0.654
CGAGACCAUCUGAUGUGGGUGCUGCUGCAGUUCAUUUCUGGAAGUAUUCAGAAAAAUGCCCUCGCUGACUUCCUCCCUGUCAUGAAGCUCUUUGACCUGCUGUACCCGGAGAAGGAGUGU	0.171
CAGGCAACUGAAAUGCUAUACAUGCGUUUGGACACAAUGAACACUACCUGUGUAGACAGGUUUAUUAAUUGGUUUUCUCAUCAUCUAAGUAACUUCCAGUUCCGUUGGAGCUGGGAAGAU	0.327
CGCUGCCGCGUGGGUCAGUGGGUACGCAUGGAGAACGUGACAGUGCUGGGUGAGGACGUCAUAGUUAAUGAUGAGCUCUACCUCAACGGAGCCAGCGUGCUGCCCCACAAGUCUAUUGGC	0.588
GCAGAGUCACAUGGCGACAAAAAGAAAGAACCAGUAAAUGGCUGUAAUACAGGAAUUUUGCCACAACCAGUUGGGACAGUCUUGUUGCAAAUACCAGAACCUCAAGAAUCGAACAGUGAC	0.162
UCGCUGGACCGAAACCGGAGAGUGAGGGGUGGGAAAAGCCAGAAGCGGAAGCGGCUGAAGAAGGACCCUGGGAAGAAGAUCAAGAGAAAGAAGAAAGGAGAGUUCCCAGGAGAAAAAAGC	0.58
GGUUUGGUGUUUGGUUUUUGUUUGUUUGUUUUACUUUUUAAAUACAACACGUACAGUUUCAUUAGCCCCAGGCCUUGUCAUCCUGUGUUCAUUCAAAUUGAGAUACAAUCUAAAAUUCAU	0.116

Series 2
Target: Histone acetyltransferase KAT6A, winged helix 1, GST fusion (KAT6A, Homo sapiens, UniProt Q92794, residues 1-85)
Method: protein binding microarray
Molecule type: double-stranded DNA, one strand shown
Sample: in vitro
Tested at: not given
Notes: 8-mer, flanks averaged, mean of 2 arrays, mostly near background
Baseline: not given
Reading: higher = stronger binding
Target sequence (chain): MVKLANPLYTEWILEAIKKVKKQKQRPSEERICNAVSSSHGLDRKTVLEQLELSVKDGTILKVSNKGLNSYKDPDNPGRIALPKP
Oligonucleotide	E-score
CAAGGCAA	-0.276
ACTGCCCT	-0.0127
ACGGTTTA	0.0488
CGGTCTGA	0.14
CGGAATTA	0.094
AACAATGT	-0.192
CTATTTTA	0.00449
GATCGTAA	-0.102
CTGTCAAC	-0.162
AGTGATGC	-0.08
ATGGGTGA	-0.157
ACGACCGC	0.311
AGGGTAAC	-0.126
CGCCTCTA	0.151
ATCACTTA	-0.126
ATCCGGTA	-0.0156
CAGCCACC	-0.0703
CGTCCCAA	-0.199
CTCCAAGA	-0.226
CCAACCGC	0.129
ATTGGCAA	-0.207
ATGAAGAA	-0.119
AACCCGTC	0.376
AAAGGATA	-0.213
CCTCTTAG	-0.0471

Series 3
Target: RNA binding protein fox-1 homolog 2, RRM domain, GST-SBP tag (RBFOX2, Homo sapiens, UniProt O43251-10, residues 100-194)
Method: RNA Bind-n-Seq
Molecule type: RNA
Sample: in vitro
Tested at: 365 nM
Notes: natural RNA segment, single round, ends assumed
Baseline: no-protein control
Reading: higher = stronger binding
Constant ends, left off below: GGGAGUUCUACAGUCCGACGAUC … UGGAAUUCUCGGGUGCCAA
Target sequence (chain): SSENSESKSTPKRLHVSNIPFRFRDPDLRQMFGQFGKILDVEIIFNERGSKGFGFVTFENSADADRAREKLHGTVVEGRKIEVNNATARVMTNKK
Oligonucleotide	RBNS enrichment (R)
GAGGCAGCCAUUAGGCUGUAGGCCUGCUUACUGCAUAGCACUGGACGUGCCAGGCACAUUCUGGCCCCUGGCAUGCUUAAGUAACUAGGUUUUCAAAUGUGGGAAACCAA	0.367
AUUACAGAAAGACACGGCACUGCCGUGCACACCCAUGCUGCUUAGAAGCCUAAGCCUCUGCCUUCAAGCUGGAUCCUGUGCAGGGUGGGCAGGCAAGAACUCAGACAUGC	0.328
UCUCUCUCGAGCGUACCAUAAACCUGCAGAGAGAAGUCUCGAAAGGCUCCACCAGGUACCAAGGGCAGCUGCUUUUCCUGUCUUUUGUGCAUGGGCGACCCAUUACAGUA	0.481
UAAUGUUGCCUGCAGCCCACAUAAAGUGCAGGCAGGAUCAGAAGUAGCCAAGUAGGUUCACUGAGGUUCCAGACUCUUCCACUGGCCUGGGGCCAUGGACAUCUUGUGAG	0.707
CAAAGCAUAGCAUUUUAGCAUCAACUACAAUCAAAAGAGCGAUUUGCUGAAGGAAAAAUCGGACUGCAAAUCAUUCCAAGGCCAAACUGCAACUGAGCCACCCACUCCCA	0.657
UUGGCCAAGUCCAUGUUGUGUGCUCAGAAGUCUCUUUACCAAAGACCAGGAGCAGGAGCCAAGCAUGUCCAGUCCUCUUCUGAGACCUCUGAGGUCUCAGAAGAGAAACU	0.554
UCUUUGCCUCAUAUUAAAAACUCAUCCCAUGGCCGCUAGGCCACCGUGCUCCAAGGGAGCUCUCAGCAGCUCUGCCUAGUGUUUCGUGCUGAACUCAUCGGGGCUUUGCG	0.406
UGCUGCAGAUAGGAUCCUUCCCUUGUCUCCAUUCCUCUCCUCCCAAAGGGAGAGGGGCAAAUGGUUUAGGUACAGGCUUUGGCUAUUAAUGUCAGGCUUGGUGGUGGGAG	0.3

Series 4
Target: human cyclin A2
Method: competitive growth deep sequencing
Molecule type: peptide
Organism: Saccharomyces cerevisiae
Strain: cyclin A2-Cln2 fusion strain
Notes: peptide tiling library
Reading: direction not given
Sequence	enrichment score
KPKPVKPVTFSTGIKM	1.32
DGCSPIKNWSPMRL	0.128
PKNAKRNLSSEFAN	2.24
DTERAHSTLDEDLERW	0.26
KRNLLNEFDRII	3.3
VLVRTSACRSLFGPVD	1.61
PARRRLRLSVDEVSSP	1.1
TARRIFQEPTEPKTKA	-0.774
SMTDFYHSKRRLIFSK	0.625
SAVPLILPQAPSGPSY	1.6
IVLICAKRSLCAAFSV	-0.563
FQDSGYNELKSCSFDN	0.512
SSEVARHLLFQSHM	-0.9
PAKRRLELGE	2.56
GLPDFVFQQQPVESEA	1.33
KPHVSDEEEEEPPFYH	1.05
PKRAKRKLYTSEISSP	0.622

A few entries again (series 1):
Oligonucleotide	bound/input enrichment [ratio]
CGCUGCCGCGUGGGUCAGUGGGUACGCAUGGAGAACGUGACAGUGCUGGGUGAGGACGUCAUAGUUAAUGAUGAGCUCUACCUCAACGGAGCCAGCGUGCUGCCCCACAAGUCUAUUGGC	0.588
GCAGAGUCACAUGGCGACAAAAAGAAAGAACCAGUAAAUGGCUGUAAUACAGGAAUUUUGCCACAACCAGUUGGGACAGUCUUGUUGCAAAUACCAGAACCUCAAGAAUCGAACAGUGAC	0.162
UCGCUGGACCGAAACCGGAGAGUGAGGGGUGGGAAAAGCCAGAAGCGGAAGCGGCUGAAGAAGGACCCUGGGAAGAAGAUCAAGAGAAAGAAGAAAGGAGAGUUCCCAGGAGAAAAAAGC	0.58
GGUUUGGUGUUUGGUUUUUGUUUGUUUGUUUUACUUUUUAAAUACAACACGUACAGUUUCAUUAGCCCCAGGCCUUGUCAUCCUGUGUUCAUUCAAAUUGAGAUACAAUCUAAAAUUCAU	0.116
